Measured values from different studies.
Each line is one published result; not all experiments were run side by side.
B1: SF3B1 454-1304 K700E (Homo sapiens, UniProt O75533); chain KSVNDQPSGNLPFLKPDDIQYFDKLLVDVDESTLSPEEQKERKIMKLLLKIKNGTPPMRKAALRQITDKAREFGAGPLFNQILPLLMSPTLEDQERHLLVKVIDRILYKLDDLVRPYVHKILVVIEPLLIDEDYYARVEGREIISNLAKAAGLATMISTMRPDIDNMDEYVRNTTARAFAVVASALGIPSLLPFLKAVCKSKKSWQARHTGIKIVQQIAILMGCAILPHLRSLVEIIEHGLVDEQQEVRTISALAIAALAEAATPYGIESFDSVLKPLWKGIRQHRGKGLAAFLKAIGYLIPLMDAEYANYYTREVMLILIREFQSPDEEMKKIVLKVVKQCCGTDGVEANYIKTEILPPFFKHFWQHRMALDRRNYRQLVDTTVELANKVGAAEIISRIVDDLKDEAEQYRKMVMETIEKIMGNLGAADIDHKLEEQLIDGILYAFQEQTTEDSVMLNGFGTVVNALGKRVKPYLPQICGTVLWRLNNKSAKVRQQAADLISRTAVVMKTCQEEKLMGHLGVVLYEYLGEEYPEVLGSILGALKAIVNVIGMHKMTPPIKDLLPRLTPILKNRHEKVQENCIDLVGRIADRGAEYVSAREWMRICFELLELLKAHKKAIRRATVNTFGYIAKAIGPHDVLATLLNNLKVQERQNRVCTTVAIAIVAETCSPFTVLPALMNEYRVPELNVQNGVLKSLSFLFEYIGEMGKDYIYAVTPLLEDALMDRDLVHRQTASAVVQHMSLGVYGFGCEDSLNHLLNYVWPNVFETSPHVIQAVMGALEGLRVAIGPCRMLQYCLQGLFHPARKVRDVYWKIYNSIYIGSQDALIAHYPRIYNDDKNTYIRYELDYIL
B2: SNAPC5 (Homo sapiens, UniProt O75971); chain MLSRLQELRKEEETLLRLKAALHDQLNRLKVEELALQSMISSRRGDEMLSSHTVPEQSHDMLVHVDNEASINQTTLELSTKSHVTEEEEEEEEEESDS
B3: SNAP29 (Homo sapiens, UniProt O95721); chain MSAYPKSYNPFDDDGEDEGARPAPWRDARDLPDGPDAPADRQQYLRQEVLRRAEATAASTSRSLALMYESEKVGVASSEELARQRGVLERTEKMVDKMDQDLKISQKHINSIKSVFGGLVNYFKSKPVETPPEQNGTLTSQPNNRLKEAISTSKEQEAKYQASHPNLRKLDDTDPVPRGAGSAMSTDAYPKNPHLRAYHQKIDSNLDELSMGLGRLKDIALGMQTEIEEQDDILDRLTTKVDKLDVNIKSTERKVRQL
B4: TFB2M 21-396 (Homo sapiens, UniProt Q9H5Q4); sequence looked up; chain GRFCILGSEAATRKHLPARNHCGLSDSSPQLWPEPDFRNPPRKASKASLDFKRYVTDRRLAETLAQIYLGKPSRPPHLLLECNPGPGILTQALLEAGAKVVALESDKTFIPHLESLGKNLDGKLRVIHCDFFKLDPRSGGVIKPPAMSSRGLFKNLGIEAVPWTADIPLKVVGMFPSRGEKRALWKLAYDLYSCTSIYKFGRIEVNMFIGEKEFQKLMADPGNPDLYHVLSVIWQLACEIKVLHMEPWSSFDIYTRKGPLENPKRRELLDQLQQKLYLIQMIPRQNLFTKNLTPMNYNIFFHLLKHCFGRRSATVIDHLRSLTPLDARDILMQIGKQEDEKVVNMHPQDFKTLFETIERSKDCAYKWLYDETLEDR
B5: dnaG P16 domain 453-597 (Geobacillus stearothermophilus, UniProt Q9X4D0); sequence looked up; chain AKKLLPAFQNAERLLLAHMMRSRDVALVVQERIGGRFNIEEHRALAAYIYAFYEEGHEADPGALISRIPGELQPLASDVSLLLIADDVSEQELEDYIRHVLNRPKWLMLKVKEQEKTEAERRKDFLTAARIAKEMIEMKKMLSSS
B6: AEBP2 407-503 (Homo sapiens, UniProt Q6ZN18-2); sequence looked up; chain RHRAICFNLSAHIESLGKGHSVVFHSTVIAKRKEDSGKIKLLLHWMPEDILPDVWVNESERHQLKTKVVHLSKLPKDTALLLDPNIYRTMPQKRLKR
B7: rasC Q62L/E157R/R164E (Dictyostelium discoideum, UniProt P32253); sequence looked up; chain MSKLLKLVIVGDGGVGKSALTIQLTQNQFIAEYDPTIENSYRKQVNIDEEVYMLDILDTAGLEEYSAMRDQYIRSGRGFLIVYSIISRASFEAVTTFREQILRVKDLSTYPIVIIGNKADLPDKDRKVPPMEGKELAKSFGAPFLETSAKSRVNVERAFFTLVEEIKRWNQNPQNEEMLPPKKRGCIIL
B8: cox13 (Schizosaccharomyces pombe, UniProt O74471); sequence looked up; chain SNEAKVNWLEEVQAEEEHAKRSSEFWKKVTYYIGGPALILASANAYYIYCKHQEHAKHVEDTDPGYSFENLRFKKYPWGDGSKTLFWNDKVNHLKKDDE
B9: BZIP12 (Oryza sativa, UniProt Q0JHF1); sequence looked up; chain MMASRVMASSSPSHTASDLARFAAGRGGGGSAGLGSMNVEEILRGIYADMPTPALPLVGGDRPMSPLPAPDVAAAPRTAEEVWKEITGAGVAAAAGGVVPPAAAAAAAPAVVAGAGAGTGAEMTLEDFLAREGAVKEDEAVVTDPSAAKGQVVMGFLNGAEVTGGVTGGRSRKRHLMDPMDRAAMQRQKRMIKNRESAARSRERKQAYIAELESLVTQLEEENAKMFKEQEEQHQKRLKELKEMVVPVIIRKTSARDLRRTNSMEW
B10: PduD (Salmonella enterica, UniProt O31041); sequence looked up; chain MEINEKLLRQIIEDVLRDMKGSDKPVSFNAPAASTAPQTAAPAGDGFLTEVGEARQGTQQDEVIIAVGPAFGLAQTVNIVGLPHKSILREVIAGIEEEGIKARVIRCFKSSDVAFVAVEGNRLSGSGISIGIQSKGTTVIHQQGLPPLSNLELFPQAPLLTLETYRQIGKNAARYAKRESPQPVPTLNDQMARPKYQAKSAILHIKETKYVVTGKNPQELRVAL
B11: MED2/PGD1 four-helix bundle 1-431 (Saccharomyces cerevisiae); chain 1 MVVQNSPVSSVHTANFSERGSNTRTMTYKNKLTVCFDDILKVGAEMMMQQQLKNVQLDSYLVNGFSQSQQKLLKEKVKLFHGILDDLETSLSQSSSYLETLTALGKEKEKEREEAEKKRAEQENMRKVREQEELKKRQELEEASQQQQLQQNSKEKNGLGLNFSTTAPANTTDANGSKENYQELGSLQSSSQTQLENANAANNGAAFSPLTTTRIQSQQAQPSDVMFNDLNSMDISMFSGLDSTGFDSTAFNATVDETKGFDDNDSGNNYNDINISSIENNINNNINSTKNGKDNNNESNKNNNGDEKNKNNNEDNENNNNSSEKNNNNNNNNNNNNDDNGNNNNNNSGNDNNNTTNNDSNNKNNSITTGNDNENIVNNDLPTTVVSNPGDNPPPADNGEEYLTLNDFNDLNIDWSTTGDNGELDLSGFNI; chain 2 MDSIIPAGVKLDDLQVILAKNENETRDKVCKQINEARDEILPLRLQFNEFIQIMANIDQEGSKQADRMAKYLHIRDKILQLNDRFQTLSSHLEALQPLFSTVPEYLKTADNRDRSFQLLEPLSTYNKNGNAVCSTATVVSTNHSAAASTPTTTATPHANPITHAHSLSNPNSTATMQHNPLAGKRGPKSGSTMGTPTVHNSTAAAPIAAPKKPRKPRQTKKAKAQAQAQAQAQAQVYAQQSTVQTPITASMAAALPNPTPSMINSVSPTNVMGTPLTNMMSPMGNAYSMGAQNQGGQVSMSQFNGSGNGSNPNTNTNSNNTPLQSQLNLNNLTPANILNMSMNNDFQQQQQQQQQQQQPQPQYNMNMGMNNMNNGGKELDSLDLNNLELGGLNMDFL
B12: ATF4 276-351 C310A (Homo sapiens, UniProt P18848); sequence looked up; chain EKLDKKLKKMEQNKTAATRYRQKKRAEQEALTGEAKELEKKNEALKERADSLAKEIQYLKDLIEEVRKARGKKRVP
B13: boss 32-530 H480D (Drosophila melanogaster, UniProt P22815); sequence looked up; chain CHGADLTSPTKKSAPLRITKPQPTSQQAKPISITTRAPTTVASTTDDEVSSSVDGQLAPLISSTTEGPSSGTTASLVPEICLNGLQLTVNSADEGTVIRKQEEFVKILEGDVVLSVLTKDPDSALFVINRVNQANLIMADFEIGIRAISIDNASLAENLLIQEVQFLQQCTTYSMGIFVDWELYKQLESVIKDLEYNIWPIPGTRAHLFPKVAHLLHQMPWGEKIASVEIATETLEMYNEFMEAARQEHMCLMHFKSDDNVYIMFGNKLASHFKENGTLFSVPTDRTDDEFLADLPNRAFVLMENEIDLSTAVELDATPTALDEILIGKSVLPSRVLSFAGSIIDLMNWLRGSLSKHCKRGEEHDLYVLESCFNFLNFIEDWRTSEYRQAHDTAEILSLLLMRKLGTAMNFQMYQKKVLTLDKITGESRTELREIASQNFVTNVTTYYDYNRDNHTSLELKTKFGQVFNCQYSAGDNRRYPFLFDGESVMFWRIKMDTW
B14: REC107 41-224 (Saccharomyces cerevisiae, UniProt P21651); chain KVANAGALEESDKQILEWAGKLELESMELRENSDKLIKVLNENSKTLCKSLNKFNQLLEQDAATNGNVKTLIKDLASQIENQLDKVSTAMLSKGDEKKTKSDSSYRQVLVEEISRYNSKITRHVTNKQHETEKSMRCTQEMLFNVGSQLEDVHKVLLSLSKDMHSLQTRQTALEMAFREKADHA
B15: PSMG3 1-122 (Homo sapiens, UniProt Q9BT73); chain MEDTPLVISKQKTEVVCGVPTQVVCTAFSSHILVVVTQFGKMGTLVSLEPSSVASDVSKPVLTTKVLLGQDEPLIHVFAKNLVAFVSQEAGNRAVLLAVAVKDKSMEGLKALREVIRVCQVW
Chain of UniProt P0A9P0 (whole entry, looked up): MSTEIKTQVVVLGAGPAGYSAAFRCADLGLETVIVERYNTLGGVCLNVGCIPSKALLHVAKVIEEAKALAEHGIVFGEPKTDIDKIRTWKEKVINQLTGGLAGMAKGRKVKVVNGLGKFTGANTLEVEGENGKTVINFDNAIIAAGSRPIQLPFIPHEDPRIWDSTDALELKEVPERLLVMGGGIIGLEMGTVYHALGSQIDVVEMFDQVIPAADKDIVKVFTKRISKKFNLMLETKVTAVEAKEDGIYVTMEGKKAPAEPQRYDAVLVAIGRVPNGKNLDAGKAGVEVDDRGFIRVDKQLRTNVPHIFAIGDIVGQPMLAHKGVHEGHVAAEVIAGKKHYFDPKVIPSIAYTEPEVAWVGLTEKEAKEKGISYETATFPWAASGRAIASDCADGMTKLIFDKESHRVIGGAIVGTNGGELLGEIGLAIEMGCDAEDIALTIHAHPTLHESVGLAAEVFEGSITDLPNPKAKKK
Chain of UniProt Q7RTV0 (whole entry, looked up): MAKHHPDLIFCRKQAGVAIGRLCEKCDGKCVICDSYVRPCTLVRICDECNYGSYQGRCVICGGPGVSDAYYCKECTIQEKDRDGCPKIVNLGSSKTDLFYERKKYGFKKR
Chain of UniProt Q9Y244 (whole entry, looked up): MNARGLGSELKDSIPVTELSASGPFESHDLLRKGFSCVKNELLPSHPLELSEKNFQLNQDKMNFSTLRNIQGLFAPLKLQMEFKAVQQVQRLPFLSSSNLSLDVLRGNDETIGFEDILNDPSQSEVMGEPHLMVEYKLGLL
Chain of UniProt P06959 (whole entry, looked up): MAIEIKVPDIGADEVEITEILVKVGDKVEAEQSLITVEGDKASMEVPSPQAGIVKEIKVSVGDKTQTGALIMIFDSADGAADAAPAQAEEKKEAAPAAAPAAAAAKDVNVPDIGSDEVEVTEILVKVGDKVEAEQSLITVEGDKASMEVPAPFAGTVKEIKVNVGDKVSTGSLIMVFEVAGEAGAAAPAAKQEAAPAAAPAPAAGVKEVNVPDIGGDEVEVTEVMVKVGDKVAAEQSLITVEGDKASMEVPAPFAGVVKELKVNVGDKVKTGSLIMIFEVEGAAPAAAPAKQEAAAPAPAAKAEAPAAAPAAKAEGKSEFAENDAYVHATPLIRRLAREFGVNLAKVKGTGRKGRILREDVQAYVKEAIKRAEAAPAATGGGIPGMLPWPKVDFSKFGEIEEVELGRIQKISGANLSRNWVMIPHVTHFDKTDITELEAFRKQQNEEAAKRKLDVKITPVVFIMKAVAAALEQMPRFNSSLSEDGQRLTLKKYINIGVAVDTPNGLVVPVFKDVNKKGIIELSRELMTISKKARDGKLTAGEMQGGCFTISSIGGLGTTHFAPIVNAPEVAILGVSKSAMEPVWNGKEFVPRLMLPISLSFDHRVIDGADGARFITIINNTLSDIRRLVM
Chain of UniProt P37449 (whole entry, looked up): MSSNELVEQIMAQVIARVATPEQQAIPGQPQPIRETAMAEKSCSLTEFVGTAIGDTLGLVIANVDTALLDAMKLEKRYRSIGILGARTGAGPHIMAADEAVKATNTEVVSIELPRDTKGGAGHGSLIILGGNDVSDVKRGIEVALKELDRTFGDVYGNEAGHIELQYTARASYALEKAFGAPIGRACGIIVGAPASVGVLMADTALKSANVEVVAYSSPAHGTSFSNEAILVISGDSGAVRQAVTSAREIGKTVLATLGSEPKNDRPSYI
Chain of UniProt P19263 (whole entry, looked up): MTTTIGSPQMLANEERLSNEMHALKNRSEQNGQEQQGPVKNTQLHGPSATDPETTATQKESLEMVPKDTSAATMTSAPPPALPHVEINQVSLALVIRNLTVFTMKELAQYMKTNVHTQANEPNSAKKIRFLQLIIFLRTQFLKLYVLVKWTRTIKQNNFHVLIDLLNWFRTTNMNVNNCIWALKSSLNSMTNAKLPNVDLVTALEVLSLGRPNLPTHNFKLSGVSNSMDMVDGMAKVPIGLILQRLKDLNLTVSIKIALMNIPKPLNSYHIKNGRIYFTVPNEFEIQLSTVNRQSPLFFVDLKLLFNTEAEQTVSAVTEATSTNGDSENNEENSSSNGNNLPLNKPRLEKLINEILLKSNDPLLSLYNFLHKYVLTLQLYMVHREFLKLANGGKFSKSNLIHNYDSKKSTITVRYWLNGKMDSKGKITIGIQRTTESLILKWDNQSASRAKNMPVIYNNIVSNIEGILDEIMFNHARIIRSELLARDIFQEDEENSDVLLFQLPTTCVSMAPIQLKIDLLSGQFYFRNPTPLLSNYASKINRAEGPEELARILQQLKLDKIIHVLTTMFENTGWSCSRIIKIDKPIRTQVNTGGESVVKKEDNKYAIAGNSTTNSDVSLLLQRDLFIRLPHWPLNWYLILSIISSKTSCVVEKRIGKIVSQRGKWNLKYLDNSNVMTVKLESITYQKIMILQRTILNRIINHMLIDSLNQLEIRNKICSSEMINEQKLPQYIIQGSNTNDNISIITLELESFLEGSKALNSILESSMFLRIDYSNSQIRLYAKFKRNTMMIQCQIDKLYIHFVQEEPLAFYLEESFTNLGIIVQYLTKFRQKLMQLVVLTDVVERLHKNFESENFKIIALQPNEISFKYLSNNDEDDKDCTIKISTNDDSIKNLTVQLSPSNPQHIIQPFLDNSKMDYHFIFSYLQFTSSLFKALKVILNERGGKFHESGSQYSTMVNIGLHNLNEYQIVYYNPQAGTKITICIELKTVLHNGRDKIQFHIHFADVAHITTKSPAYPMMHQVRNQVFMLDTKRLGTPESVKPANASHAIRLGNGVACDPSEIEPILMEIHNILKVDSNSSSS
Chain of UniProt Q8WUP2 (whole entry, looked up): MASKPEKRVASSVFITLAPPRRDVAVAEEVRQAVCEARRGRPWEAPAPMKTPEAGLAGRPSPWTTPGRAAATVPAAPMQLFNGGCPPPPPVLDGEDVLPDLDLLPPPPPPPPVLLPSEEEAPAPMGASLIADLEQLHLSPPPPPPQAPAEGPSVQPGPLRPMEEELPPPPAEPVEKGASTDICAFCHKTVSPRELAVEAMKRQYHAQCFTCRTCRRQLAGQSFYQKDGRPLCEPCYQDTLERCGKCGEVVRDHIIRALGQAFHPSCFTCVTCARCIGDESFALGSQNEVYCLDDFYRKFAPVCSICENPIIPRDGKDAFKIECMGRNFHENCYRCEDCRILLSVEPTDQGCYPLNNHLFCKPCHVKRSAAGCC
Chain of UniProt Q9P3B2 (whole entry, looked up): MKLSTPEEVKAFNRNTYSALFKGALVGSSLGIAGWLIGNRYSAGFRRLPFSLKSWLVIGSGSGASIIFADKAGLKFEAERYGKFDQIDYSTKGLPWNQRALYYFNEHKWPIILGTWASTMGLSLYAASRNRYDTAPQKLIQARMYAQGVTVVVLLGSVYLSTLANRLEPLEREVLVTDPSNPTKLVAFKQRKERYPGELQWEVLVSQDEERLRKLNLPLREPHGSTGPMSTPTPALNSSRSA
Chain of UniProt O00411 (whole entry, unmodified, looked up): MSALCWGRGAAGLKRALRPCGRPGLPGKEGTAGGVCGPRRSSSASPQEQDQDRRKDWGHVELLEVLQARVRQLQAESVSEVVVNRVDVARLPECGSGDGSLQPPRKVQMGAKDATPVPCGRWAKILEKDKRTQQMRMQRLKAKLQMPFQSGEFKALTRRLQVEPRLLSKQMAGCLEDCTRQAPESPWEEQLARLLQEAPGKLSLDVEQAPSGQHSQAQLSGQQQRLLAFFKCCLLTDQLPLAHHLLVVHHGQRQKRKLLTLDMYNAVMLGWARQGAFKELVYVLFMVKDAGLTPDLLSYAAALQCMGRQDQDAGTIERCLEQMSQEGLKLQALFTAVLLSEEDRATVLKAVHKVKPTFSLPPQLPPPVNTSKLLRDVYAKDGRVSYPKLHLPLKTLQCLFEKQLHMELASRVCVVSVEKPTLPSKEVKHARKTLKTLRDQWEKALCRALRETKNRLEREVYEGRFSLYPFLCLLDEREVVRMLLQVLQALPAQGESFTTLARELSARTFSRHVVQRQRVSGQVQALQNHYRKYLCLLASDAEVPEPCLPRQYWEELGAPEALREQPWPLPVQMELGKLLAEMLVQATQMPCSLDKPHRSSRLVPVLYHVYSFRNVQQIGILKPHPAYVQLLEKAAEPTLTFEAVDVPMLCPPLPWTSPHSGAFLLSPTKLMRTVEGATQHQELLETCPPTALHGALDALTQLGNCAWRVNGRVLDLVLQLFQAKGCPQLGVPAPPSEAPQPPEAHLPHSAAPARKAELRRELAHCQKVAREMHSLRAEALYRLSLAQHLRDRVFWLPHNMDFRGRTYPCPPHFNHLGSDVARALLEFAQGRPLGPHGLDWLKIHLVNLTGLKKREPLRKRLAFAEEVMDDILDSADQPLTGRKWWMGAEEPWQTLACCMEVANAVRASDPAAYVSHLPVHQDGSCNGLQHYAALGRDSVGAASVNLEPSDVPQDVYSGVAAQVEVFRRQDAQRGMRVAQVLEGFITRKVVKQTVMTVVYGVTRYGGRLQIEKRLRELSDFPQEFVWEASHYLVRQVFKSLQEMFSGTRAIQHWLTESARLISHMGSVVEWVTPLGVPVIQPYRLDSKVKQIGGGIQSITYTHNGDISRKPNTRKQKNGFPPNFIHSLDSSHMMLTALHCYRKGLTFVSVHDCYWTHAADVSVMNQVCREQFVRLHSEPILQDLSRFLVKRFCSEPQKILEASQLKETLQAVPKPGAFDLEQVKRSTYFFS
Chain of UniProt Q13487 (whole entry, looked up): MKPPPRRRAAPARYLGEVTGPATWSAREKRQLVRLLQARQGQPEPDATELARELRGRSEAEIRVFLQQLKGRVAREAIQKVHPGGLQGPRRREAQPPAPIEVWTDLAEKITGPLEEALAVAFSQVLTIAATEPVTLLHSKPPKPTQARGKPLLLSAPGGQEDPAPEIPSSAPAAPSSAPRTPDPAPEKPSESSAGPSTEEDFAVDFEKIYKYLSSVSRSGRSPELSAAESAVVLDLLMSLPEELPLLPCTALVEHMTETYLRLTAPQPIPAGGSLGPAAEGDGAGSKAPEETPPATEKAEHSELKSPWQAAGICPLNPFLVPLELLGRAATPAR

EGKAPKRRQDDEGLGSKRPKME (XRCC6 537-554 (Canis lupus familiaris)) — binding (KPNA2/KPNB1 (Homo sapiens); pull-down): binds
B1 (SF3B1 454-1304 K700E) — binding (PHF5A (Homo sapiens, UniProt Q7RTV0); cryo-EM): binds
B2 (SNAPC5) — binding (SNAPC2 (Homo sapiens, UniProt Q13487); cross-linking): binds
NUP62 (Homo sapiens, UniProt P37198) — binding (FUS (Homo sapiens, UniProt P35637); co-IP): binds
YQSAIKVEPASPPYYSEKTQL (PPARG residues 102-122 (Homo sapiens); N-acetyl, pS112) — binding (PIN1 (Homo sapiens, UniProt Q13526); NMR; peptide): binds
B3 (SNAP29) — binding (FBLIM1 (Homo sapiens, UniProt Q8WUP2); pull-down): binds
B4 (TFB2M 21-396) — binding (POLRMT 120-1230 E555A (Homo sapiens, UniProt O00411); cryo-EM): binds
colistin — MIC (Pseudomonas aeruginosa; clinical isolate RKI 93/12): ≤ 1 µg/mL
SMNTTLGSIGSRKYSFNYSSLPSPYKTTVYRYSAAKKIPD (NUP60 200-239 (Saccharomyces cerevisiae, UniProt P39705); sequence looked up) — binding (NUP85/SEH1 Nup85 1-564 (Saccharomyces cerevisiae); pull-down): binds
B5 (dnaG P16 domain 453-597) — binding (dnaB (Geobacillus stearothermophilus, UniProt Q9X4C9); NMR titration): binds
B6 (AEBP2 407-503) — binding (SUZ12 146-363 (Homo sapiens, UniProt Q15022); SEC): binds
B7 (rasC Q62L/E157R/R164E) — binding (racE T25N/S192D/E173R/R186E (Dictyostelium discoideum); pull-down): binds
lpdA (Escherichia coli, UniProt P0A9P0) — binding (aceF (Escherichia coli, UniProt P06959); negative-stain EM, thermal unfolding): binds
B8 (cox13) — binding (rcf2 (Schizosaccharomyces pombe, UniProt Q9P3B2); cryo-EM): binds
B9 (BZIP12) — binding (SAPK8 (Oryza sativa, UniProt Q7Y0B9); pull-down): binds
B10 (PduD) — binding (PduB (Salmonella enterica Typhimurium LT2, UniProt P37449); cross-linking): binds
B11 — binding (RGR1 1-1082 (Saccharomyces cerevisiae, UniProt P19263); cryo-EM): binds
B12 (ATF4 276-351 C310A) — binding (ATF4 1-275 (Homo sapiens, UniProt P18848); NMR titration): binds
B13 (boss 32-530 H480D) — binding (sev extracellular domain 123-2119 furin site removed (Drosophila melanogaster, UniProt P13368); SPR): binds
B14 (REC107 41-224) — binding (SPP1 (Saccharomyces cerevisiae, UniProt Q03012); SEC-MALS): binds
SSHSSLTERHKILHRLLQEGSPSDITTLSVEPD (NCOA1 678-710 (Homo sapiens, UniProt Q15788); sequence looked up) — binding (NR1I2 130-434 L411A (Homo sapiens, UniProt O75469); crystal structure; peptide): binds
B15 (PSMG3 1-122) — binding (POMP (Homo sapiens, UniProt Q9Y244); cryo-EM): binds
KKAQPISVTMVTPADLEPPQAKK (TonB residues 42-60 (Escherichia coli)) — binding (exbD 43-141 (Escherichia coli, UniProt P0ABV2); NMR titration; peptide): binds

For quick reference, copied from above:
YQSAIKVEPASPPYYSEKTQL (PPARG residues 102-122 (Homo sapiens); N-acetyl, pS112) — binding (PIN1 (Homo sapiens, UniProt Q13526); NMR; peptide): binds
B15 (PSMG3 1-122) — binding (POMP (Homo sapiens, UniProt Q9Y244); cryo-EM): binds
lpdA (Escherichia coli, UniProt P0A9P0) — binding (aceF (Escherichia coli, UniProt P06959); negative-stain EM, thermal unfolding): binds
